Measured values gathered from unrelated publications.
Compare with care: the assays were run in different laboratories. ± marks the error that the study gave.
Chain of UniProt P10635 (whole entry, looked up): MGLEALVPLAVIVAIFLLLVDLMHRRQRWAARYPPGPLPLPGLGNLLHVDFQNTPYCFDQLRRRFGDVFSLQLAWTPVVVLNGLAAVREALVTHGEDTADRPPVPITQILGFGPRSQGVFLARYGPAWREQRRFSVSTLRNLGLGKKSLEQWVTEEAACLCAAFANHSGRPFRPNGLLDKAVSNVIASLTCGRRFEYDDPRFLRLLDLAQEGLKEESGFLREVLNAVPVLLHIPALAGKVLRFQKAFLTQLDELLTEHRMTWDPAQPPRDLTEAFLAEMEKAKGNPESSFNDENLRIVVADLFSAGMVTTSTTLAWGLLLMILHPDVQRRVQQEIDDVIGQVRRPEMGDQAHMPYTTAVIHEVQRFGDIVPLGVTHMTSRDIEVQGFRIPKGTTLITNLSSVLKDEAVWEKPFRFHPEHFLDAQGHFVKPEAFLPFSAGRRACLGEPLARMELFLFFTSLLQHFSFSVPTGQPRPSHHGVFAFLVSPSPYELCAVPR
Chain of UniProt Q12809 (whole entry, looked up): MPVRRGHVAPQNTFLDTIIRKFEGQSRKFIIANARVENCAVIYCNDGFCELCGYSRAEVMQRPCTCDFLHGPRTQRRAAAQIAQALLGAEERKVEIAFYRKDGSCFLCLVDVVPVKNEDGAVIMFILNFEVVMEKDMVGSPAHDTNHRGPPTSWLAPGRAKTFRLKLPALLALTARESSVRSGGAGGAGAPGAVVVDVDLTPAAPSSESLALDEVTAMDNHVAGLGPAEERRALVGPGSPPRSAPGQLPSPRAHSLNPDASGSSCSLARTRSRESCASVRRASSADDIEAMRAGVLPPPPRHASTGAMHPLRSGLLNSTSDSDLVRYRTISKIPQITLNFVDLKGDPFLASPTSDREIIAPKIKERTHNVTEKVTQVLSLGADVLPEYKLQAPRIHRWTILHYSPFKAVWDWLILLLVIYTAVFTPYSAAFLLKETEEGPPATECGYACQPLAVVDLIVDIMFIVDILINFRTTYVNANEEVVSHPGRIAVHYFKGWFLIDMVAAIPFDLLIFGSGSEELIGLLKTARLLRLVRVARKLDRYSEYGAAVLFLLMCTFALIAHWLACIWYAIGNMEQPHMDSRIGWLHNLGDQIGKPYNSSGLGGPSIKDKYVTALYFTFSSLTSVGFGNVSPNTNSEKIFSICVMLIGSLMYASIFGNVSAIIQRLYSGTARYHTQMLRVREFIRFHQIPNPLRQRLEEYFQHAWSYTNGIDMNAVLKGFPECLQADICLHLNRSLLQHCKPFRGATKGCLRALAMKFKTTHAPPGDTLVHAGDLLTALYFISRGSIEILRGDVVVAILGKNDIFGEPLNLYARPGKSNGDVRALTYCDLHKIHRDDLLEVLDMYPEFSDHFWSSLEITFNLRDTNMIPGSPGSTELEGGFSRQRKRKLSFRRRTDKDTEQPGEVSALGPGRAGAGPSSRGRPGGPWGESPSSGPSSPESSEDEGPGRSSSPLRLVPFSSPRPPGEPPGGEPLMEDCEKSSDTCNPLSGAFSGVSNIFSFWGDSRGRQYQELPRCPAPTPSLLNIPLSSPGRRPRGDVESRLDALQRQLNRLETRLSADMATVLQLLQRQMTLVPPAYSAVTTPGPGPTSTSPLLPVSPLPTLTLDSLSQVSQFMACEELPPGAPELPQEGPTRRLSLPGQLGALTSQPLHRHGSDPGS

SMILES | tested on | assay | test system | conditions | scale | endpoint | result
COc1cc(C(=O)NCCOCCOCCOCCNC(=O)c2ccc([18F])nc2)ccc1NC(=O)C1NC(CC(C)(C)C)C(C#N)(c2ccc(Cl)cc2F)C1c1cccc(Cl)c1F (stereo not shown) | HepG2 tumour model |  | host not given, muscle | 4 h, tumour-bearing |  | tracer uptake | 0.39 %ID/g
COc1ccc(CNc2nc(N3CCC[C@H]3CO)ncc2C(=O)NN)cc1Cl | Salmonella typhimurium |  | TA1535 | 125 µg/plate, 48 h, together with: rat liver S9 |  | revertant count | 61 ± 3
CC[C@H](C)[C@H](NC(=O)[C@H](CC(=O)O)NC(=O)[C@@H](NC(=O)[C@@H]1CCCN1C(=O)[C@H](CCCNC(=N)N)NC(=O)CCCCCCCCc1cn(CCOCCOCCOCCOCCOCCNC(=O)CCCCC[N+]2=C(/C=C/C=C/C=C3/N(C)c4ccccc4C3(C)C)C(C)(C)c3ccccc32)nn1)[C@@H](C)O)C(=O)N[C@@H](CCCCN)C(=O)N[C@H]1CSSC[C@@H]2NC(=O)[C@H](CCCNC(=N)N)NC(=O)CNC(=O)[C@H](CC(N)=O)NC(=O)[C@H]([C@@H](C)O)NC(=O)[C@H](CCCCN)NC(=O)CNC(=O)[C@H](Cc3ccccc3)NC(=O)[C@H](CCCNC(=N)N)NC(=O)[C@H](CO)NC(=O)[C@H](CCCCN)NC(=O)[C@@H]3CSSC[C@@H](C(=O)N[C@@H](Cc4ccccc4)C(=O)O)NC(=O)[C@H](CC(=O)O)NC(=O)[C@H](CSSC[C@H](NC(=O)[C@H](CCC(N)=O)NC(=O)[C@H](Cc4ccc(O)cc4)NC(=O)[C@H](CO)NC(=O)[C@H](CCC(=O)O)NC(=O)[C@H](CO)NC1=O)C(=O)N[C@@H](Cc1ccccc1)C(=O)N1CCC[C@H]1C(=O)N[C@@H](C(C)C)C(=O)N3)NC(=O)[C@H](Cc1ccccc1)NC(=O)CNC(=O)[C@H](CC(N)=O)NC(=O)[C@H](C(C)C)NC2=O | Voltage-gated inwardly rectifying potassium channel KCNH2 (KCNH2, Homo sapiens, UniProt Q12809) | ion current, inhibitor, two-electrode voltage clamp |  | pH 7.4, oocytes |  | IC50 | 0.0641 µM
Oc1ccc(Nc2ccnc3cc(Cl)ccc23)cc1 | BHK-21 DENV2 replicon cells |  |  | 24 h |  | CC50 | > 100 µM
C[C@@](O)(C(F)F)[C@H](NC(=O)c1ccc(C#CC#CC2CC2)cc1)C(=O)NO |  |  | dog, plasma | intravenous, 30 mg/kg |  | clearance | 26 mL/min/kg
Nc1nc2c([C@@H]3O[C@@H]4COP(=O)(O)O[C@H]5[C@@H](O)[C@H](c6scc7c(=O)[nH]c(N)nc67)O[C@@H]5COP(=O)(O)O[C@H]4[C@H]3O)scc2c(=O)[nH]1 |  |  |  |  | baseline: parent monomeric nucleoside | relative emission quantum yield | ~17%
COc1ccc(CNc2nc(N3CCC[C@H]3CO)ncc2C(=O)NNC(=O)c2cnc(N3CCC[C@H]3CO)nc2NCc2ccc(OC)c(Cl)c2)cc1Cl | Salmonella typhimurium |  | TA102 | 250 µg/plate, together with: rat liver S9 |  | revertant count | 226 ± 14
CC[C@H](C)C(=O)N1CCC(NC(=O)Nc2ccc(OC(F)(F)F)c(F)c2)CC1 |  |  | human, plasma | oral, 16 mg, single dose, healthy volunteers |  | AUC(0-t) | 6780 ng·h/mL
C=CC(=O)Nc1cc(Nc2nccc(-c3cn(C)c4ccccc34)n2)c(OCC(F)(F)F)nc1N(C)CCN(C)C | Cytochrome P450 2D6 (CYP2D6, Homo sapiens, UniProt P10635) | dextromethorphan O-demethylation, inhibitor | human liver microsomes | 1 µM |  | remaining activity | 102%
CCC(=O)N(C)c1ccc(Cl)c(Cl)c1 | Salmonella typhimurium | Ames test | TA98 | 5.00 mg/plate, with rat liver S9 |  | revertants | 0 revertants/plate
O=C(O)CCC(NP(=O)(O)OCCC[C@@H](NC(=O)CCC(NC(=O)c1ccc([18F])cc1)C(=O)O)C(=O)O)C(=O)O (stereo partly shown) | CWR22Rv1 tumour model |  | host not given, kidney | intravenous, 1 h, tumour-bearing |  | tracer uptake | 8.94 %ID/g
CN(C)CC1CCCCC1(O)c1cccc(O)c1 (stereo not shown) | P-glycoprotein |  | Caco-2 TC7 | 1 µM, 3 h, pH 7.4, together with: elacridar 4 µM |  | efflux ratio | 1.2
O=C(O)CCC(NP(=O)(O)OCCC[C@@H](NC(=O)CCC(NC(=O)CCCCCNC(=O)CCCCCNC(=O)c1ccc([18F])cc1)C(=O)O)C(=O)O)C(=O)O (stereo partly shown) | PC-3 tumour model |  | host not given, spleen | intravenous, 2 h, tumour-bearing |  | tracer uptake | 0.14 %ID/g
CN[C@](C)(C[18F])C(=O)O | MDA-MB-468 tumour model |  | host not given, pancreas | 1 h, tumour-bearing |  | tracer uptake | 25 %ID/g
O=C(O)CCC(NP(=O)(O)OCCC[C@@H](NC(=O)CCC(NC(=O)CCCCCNC(=O)c1ccc([18F])cc1)C(=O)O)C(=O)O)C(=O)O (stereo partly shown) | PC-3 tumour model |  | host not given, blood | intravenous, 2 h, tumour-bearing |  | tracer uptake | 0.05 %ID/g
O=C(O)CCCC1C2CCCN3CCCC(CN1C(=O)c1ccc(Cl)cc1)C23 (stereo not shown) | HEK293T |  |  |  |  | CC50 | 200 µM

A few entries again:
SMILES | tested on | assay | test system | conditions | scale | endpoint | result
Oc1ccc(Nc2ccnc3cc(Cl)ccc23)cc1 | BHK-21 DENV2 replicon cells |  |  | 24 h |  | CC50 | > 100 µM
